Measured values from different studies.
Compare with care: the assays were run in different laboratories. “And” joins repeats or separate records; there may be more than shown.
TDP1: Tyrosyl-DNA phosphodiesterase 1 (TDP1, Homo sapiens, UniProt Q9NUW8)
Chain of UniProt Q9NUW8 (whole entry, looked up): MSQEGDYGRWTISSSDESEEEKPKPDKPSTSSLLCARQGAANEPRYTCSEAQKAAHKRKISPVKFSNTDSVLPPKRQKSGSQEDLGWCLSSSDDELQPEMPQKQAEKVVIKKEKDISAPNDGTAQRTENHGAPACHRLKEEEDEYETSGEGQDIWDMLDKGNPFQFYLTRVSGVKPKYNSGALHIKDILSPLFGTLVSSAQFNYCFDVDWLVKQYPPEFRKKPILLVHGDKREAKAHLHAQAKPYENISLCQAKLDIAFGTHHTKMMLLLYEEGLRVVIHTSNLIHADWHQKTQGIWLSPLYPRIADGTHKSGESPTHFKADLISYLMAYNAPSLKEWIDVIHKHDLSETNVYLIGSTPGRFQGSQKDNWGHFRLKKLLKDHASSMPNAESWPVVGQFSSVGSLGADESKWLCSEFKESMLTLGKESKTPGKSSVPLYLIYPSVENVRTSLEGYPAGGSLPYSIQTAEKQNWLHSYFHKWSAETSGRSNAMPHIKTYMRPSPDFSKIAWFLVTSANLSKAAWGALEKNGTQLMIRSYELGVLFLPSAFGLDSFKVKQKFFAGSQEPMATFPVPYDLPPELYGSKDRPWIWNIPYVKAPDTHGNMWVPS

SMILES	tested on	assay	conditions	how to read	endpoint	value
Cc1cc(C=NOCc2ccc3nc(-c4ccccc4)c(Nc4ccc(C(=O)O)cc4)n3c2)c(C)n1-c1ccc(N2CCCC2)c([N+](=O)[O-])c1 (mixture of isomers)	TDP1	enzyme activity, inhibitor	100 µM, unpurified compound	–	inhibition	0.7%
O=C(C[Se]C(=O)c1ccc2ccccc2n1)Nc1cccc(C(F)(F)F)c1	NCI60 CNS subpanel	cell growth	10 µM, 48 h, one-dose	–	mean growth percent	-91.5%
CNS(=O)(=O)Nc1nccc(Cc2c(C)c3ccc(Oc4ncccc4F)cc3oc2=O)c1F	HCC70	cell viability	7 days	–	IC50	> 1000 nM
COc1ccccc1-c1ccncc1C(=O)Nc1ccc(OCc2ccc(Cl)cc2)nn1	DLD-1 parental (BRCA2 WT)	–	20 µM, single run	relative to: untreated	colony survival	100% and 92.6%
O=C(O)c1ccc(Nc2c(-c3ccccc3)nc3ccc(CON=CC4=C(Cl)c5ccccc5CC4)cn23)cc1 (mixture of isomers)	TDP1	enzyme activity, inhibitor	100 µM, unpurified compound	–	inhibition	47.5%
CN1CCCNC(=O)c2cccc(c2)C(=O)NCCCN(C)CCCNc2cccc3c2C(=O)c2cccc(c2C3=O)NCCC1	SAS	RNA-seq, measured: MDC1-AS1 mRNA	1 µM, 6 h	relative to: untreated cells	log2 fold change	1.25
Cc1ncsc1-c1ccc(C(C)NC(=O)C2CC(O)CN2C(=O)C(NC(=O)CCCCCCCCCCN2CCCC(Nc3ncc(Cl)c(Nc4ccccc4S(=O)(=O)C(C)C)n3)C2)C(C)(C)C)cc1 (stereo not shown)	22Rv1	RNA-seq, measured: PKDREJ mRNA	concentration not given	relative to: DMSO	log2 fold change	-3.95
CO[C@@H]1[C@@H](OC(N)=O)[C@@H](O)[C@H](Oc2ccc3c(O)c(NC(=O)c4ccc(O)c(CC=C(C)C)c4)c(=O)oc3c2C)OC1(C)C	DLD-1 parental	–	150 µM	relative to: untreated	colony survival	0.119%
CCN(CC)CC(=O)Nc1cccc(-n2cc(-c3ccc4ccc(-c5cn(-c6cccc(NC(=O)CN(CC)CC)c6)nn5)cc4c3)nn2)c1	RCC4	PCR angiogenesis array, measured: CXCL6	5 x IC50, 2 h, normoxia	relative to: untreated	fold regulation	-1.04
Cn1ncc2cc(-c3cncc(Cl)c3N3CCC4(CCNC4=O)CC3)ccc21	LS174T	gene expression, microarray, measured: EDN2 mRNA	concentration not given, 4 h	relative to: untreated cells	log2 fold change	1.41

Some of these lines once more:
SMILES	tested on	assay	conditions	how to read	endpoint	value
CN1CCCNC(=O)c2cccc(c2)C(=O)NCCCN(C)CCCNc2cccc3c2C(=O)c2cccc(c2C3=O)NCCC1	SAS	RNA-seq, measured: MDC1-AS1 mRNA	1 µM, 6 h	relative to: untreated cells	log2 fold change	1.25
Cc1ncsc1-c1ccc(C(C)NC(=O)C2CC(O)CN2C(=O)C(NC(=O)CCCCCCCCCCN2CCCC(Nc3ncc(Cl)c(Nc4ccccc4S(=O)(=O)C(C)C)n3)C2)C(C)(C)C)cc1 (stereo not shown)	22Rv1	RNA-seq, measured: PKDREJ mRNA	concentration not given	relative to: DMSO	log2 fold change	-3.95
